Measurements gathered from unrelated publications.
Lines come from different studies, so protocols differ. Numbers after ± are the reported error.
HTR2A: 5-hydroxytryptamine receptor 2A (HTR2A, Homo sapiens, UniProt P28223)
Chain of UniProt P28223 (whole entry, looked up): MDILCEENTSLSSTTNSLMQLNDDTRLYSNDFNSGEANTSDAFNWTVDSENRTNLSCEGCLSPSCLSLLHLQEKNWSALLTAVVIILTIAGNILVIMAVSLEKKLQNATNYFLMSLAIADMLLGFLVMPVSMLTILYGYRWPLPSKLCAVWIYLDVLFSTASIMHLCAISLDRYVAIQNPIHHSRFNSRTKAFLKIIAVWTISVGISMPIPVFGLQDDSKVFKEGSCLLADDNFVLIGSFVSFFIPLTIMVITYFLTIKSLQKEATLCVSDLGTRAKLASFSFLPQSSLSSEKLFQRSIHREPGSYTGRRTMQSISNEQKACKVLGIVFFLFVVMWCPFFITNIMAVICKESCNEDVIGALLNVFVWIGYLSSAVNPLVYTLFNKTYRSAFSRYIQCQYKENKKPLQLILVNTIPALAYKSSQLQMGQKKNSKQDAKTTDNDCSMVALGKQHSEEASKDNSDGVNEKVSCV
Chain of UniProt P30561 (whole entry, looked up): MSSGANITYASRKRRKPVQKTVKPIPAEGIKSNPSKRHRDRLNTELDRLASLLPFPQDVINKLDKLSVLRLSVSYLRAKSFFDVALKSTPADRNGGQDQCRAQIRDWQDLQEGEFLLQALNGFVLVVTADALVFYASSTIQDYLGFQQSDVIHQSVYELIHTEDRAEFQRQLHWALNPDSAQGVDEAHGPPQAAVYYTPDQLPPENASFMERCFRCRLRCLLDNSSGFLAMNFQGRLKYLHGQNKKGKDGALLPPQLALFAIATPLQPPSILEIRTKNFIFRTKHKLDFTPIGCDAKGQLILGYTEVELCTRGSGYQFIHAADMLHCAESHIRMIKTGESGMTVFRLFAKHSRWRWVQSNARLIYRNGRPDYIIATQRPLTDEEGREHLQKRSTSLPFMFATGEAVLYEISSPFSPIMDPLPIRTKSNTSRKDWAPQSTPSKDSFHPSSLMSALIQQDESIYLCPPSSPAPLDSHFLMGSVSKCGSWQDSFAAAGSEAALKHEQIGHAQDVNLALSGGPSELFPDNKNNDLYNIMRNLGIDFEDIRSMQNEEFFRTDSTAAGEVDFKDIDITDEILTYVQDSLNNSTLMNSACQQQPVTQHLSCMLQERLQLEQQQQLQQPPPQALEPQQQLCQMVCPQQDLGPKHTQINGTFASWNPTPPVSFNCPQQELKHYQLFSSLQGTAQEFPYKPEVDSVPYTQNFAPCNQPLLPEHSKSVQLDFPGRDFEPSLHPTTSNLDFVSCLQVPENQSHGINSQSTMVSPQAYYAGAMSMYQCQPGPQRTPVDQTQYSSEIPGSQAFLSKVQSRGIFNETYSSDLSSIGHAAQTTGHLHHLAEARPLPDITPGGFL
Chain of UniProt O75762 (whole entry, looked up): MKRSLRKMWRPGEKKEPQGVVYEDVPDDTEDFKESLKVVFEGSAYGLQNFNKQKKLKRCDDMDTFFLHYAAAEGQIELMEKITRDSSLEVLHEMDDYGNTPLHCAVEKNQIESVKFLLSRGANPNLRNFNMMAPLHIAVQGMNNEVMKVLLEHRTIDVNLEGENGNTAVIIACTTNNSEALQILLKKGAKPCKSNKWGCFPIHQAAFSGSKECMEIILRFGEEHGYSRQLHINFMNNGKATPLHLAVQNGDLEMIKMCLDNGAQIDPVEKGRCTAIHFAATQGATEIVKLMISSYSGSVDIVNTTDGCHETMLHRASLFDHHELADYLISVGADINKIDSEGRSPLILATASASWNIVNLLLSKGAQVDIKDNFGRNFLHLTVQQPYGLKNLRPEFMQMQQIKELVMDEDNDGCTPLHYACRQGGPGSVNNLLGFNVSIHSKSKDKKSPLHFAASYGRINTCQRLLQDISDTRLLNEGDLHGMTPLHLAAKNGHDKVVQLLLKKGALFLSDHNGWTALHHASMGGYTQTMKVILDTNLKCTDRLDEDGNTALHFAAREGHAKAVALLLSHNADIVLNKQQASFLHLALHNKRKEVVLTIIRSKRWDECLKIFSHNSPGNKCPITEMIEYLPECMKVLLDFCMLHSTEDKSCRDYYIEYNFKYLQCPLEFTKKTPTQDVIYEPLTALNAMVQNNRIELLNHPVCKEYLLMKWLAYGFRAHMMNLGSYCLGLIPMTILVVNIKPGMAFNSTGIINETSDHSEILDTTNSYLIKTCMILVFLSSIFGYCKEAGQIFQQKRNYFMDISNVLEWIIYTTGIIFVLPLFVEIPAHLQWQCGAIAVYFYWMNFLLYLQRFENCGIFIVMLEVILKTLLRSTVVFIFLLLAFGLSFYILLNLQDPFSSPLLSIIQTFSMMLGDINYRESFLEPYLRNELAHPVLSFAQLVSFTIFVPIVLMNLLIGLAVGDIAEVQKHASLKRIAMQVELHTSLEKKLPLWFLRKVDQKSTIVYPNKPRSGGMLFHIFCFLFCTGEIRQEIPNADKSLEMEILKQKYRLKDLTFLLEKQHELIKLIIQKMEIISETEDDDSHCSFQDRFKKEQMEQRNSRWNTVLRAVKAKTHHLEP
Chain of UniProt P14867 (whole entry, looked up): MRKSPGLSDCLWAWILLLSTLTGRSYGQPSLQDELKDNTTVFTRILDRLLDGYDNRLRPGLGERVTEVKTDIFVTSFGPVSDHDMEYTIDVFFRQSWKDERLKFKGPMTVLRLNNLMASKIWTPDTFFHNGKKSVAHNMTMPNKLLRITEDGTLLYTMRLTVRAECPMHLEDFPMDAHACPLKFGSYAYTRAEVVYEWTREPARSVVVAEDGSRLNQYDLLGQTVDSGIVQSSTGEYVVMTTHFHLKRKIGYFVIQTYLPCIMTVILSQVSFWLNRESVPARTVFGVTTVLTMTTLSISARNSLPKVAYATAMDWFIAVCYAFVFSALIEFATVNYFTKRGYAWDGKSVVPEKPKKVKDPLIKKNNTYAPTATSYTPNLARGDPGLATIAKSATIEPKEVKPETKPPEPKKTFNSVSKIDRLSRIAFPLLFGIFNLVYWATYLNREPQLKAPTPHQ
Chain of UniProt P08908 (whole entry, looked up): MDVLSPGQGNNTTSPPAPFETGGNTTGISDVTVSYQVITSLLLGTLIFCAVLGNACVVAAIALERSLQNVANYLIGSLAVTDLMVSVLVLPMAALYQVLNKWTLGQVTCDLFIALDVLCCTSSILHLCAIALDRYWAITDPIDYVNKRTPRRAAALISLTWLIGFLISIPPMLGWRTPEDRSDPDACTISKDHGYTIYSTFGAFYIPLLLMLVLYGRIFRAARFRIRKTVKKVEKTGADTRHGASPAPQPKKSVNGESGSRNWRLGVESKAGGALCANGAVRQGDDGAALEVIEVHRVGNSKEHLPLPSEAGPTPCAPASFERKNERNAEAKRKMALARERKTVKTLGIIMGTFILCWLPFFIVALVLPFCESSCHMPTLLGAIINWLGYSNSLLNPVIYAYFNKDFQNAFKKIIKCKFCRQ
Chain of UniProt P47870 (whole entry, looked up): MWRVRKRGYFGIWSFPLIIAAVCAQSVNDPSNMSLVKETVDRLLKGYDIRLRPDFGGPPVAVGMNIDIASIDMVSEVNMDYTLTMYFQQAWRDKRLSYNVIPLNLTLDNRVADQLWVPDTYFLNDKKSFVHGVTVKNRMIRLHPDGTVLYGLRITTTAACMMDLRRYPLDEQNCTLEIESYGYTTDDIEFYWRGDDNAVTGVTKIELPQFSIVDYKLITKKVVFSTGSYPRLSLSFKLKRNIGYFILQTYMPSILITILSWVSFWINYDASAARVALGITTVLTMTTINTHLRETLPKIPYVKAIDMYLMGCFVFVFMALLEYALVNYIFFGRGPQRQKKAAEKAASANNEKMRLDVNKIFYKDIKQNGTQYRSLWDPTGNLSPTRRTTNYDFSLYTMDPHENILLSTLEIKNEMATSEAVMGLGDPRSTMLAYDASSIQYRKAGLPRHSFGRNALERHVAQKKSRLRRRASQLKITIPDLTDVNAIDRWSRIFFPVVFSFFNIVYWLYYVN
Chain of UniProt P22307 (whole entry, looked up): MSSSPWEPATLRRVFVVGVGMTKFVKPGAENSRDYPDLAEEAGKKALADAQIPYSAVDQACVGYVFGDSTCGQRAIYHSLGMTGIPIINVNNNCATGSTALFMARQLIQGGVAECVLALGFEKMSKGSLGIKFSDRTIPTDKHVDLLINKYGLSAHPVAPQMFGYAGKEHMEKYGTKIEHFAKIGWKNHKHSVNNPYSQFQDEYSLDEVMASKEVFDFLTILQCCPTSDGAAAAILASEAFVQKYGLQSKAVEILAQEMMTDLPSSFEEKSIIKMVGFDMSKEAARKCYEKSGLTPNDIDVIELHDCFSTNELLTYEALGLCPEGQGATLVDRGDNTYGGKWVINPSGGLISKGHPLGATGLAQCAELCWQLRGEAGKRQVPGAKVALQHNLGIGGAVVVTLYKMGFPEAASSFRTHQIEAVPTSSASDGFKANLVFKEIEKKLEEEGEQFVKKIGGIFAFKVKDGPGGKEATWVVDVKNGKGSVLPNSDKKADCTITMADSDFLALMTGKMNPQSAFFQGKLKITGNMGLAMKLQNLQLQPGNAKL
Chain of UniProt Q63371 (whole entry, looked up): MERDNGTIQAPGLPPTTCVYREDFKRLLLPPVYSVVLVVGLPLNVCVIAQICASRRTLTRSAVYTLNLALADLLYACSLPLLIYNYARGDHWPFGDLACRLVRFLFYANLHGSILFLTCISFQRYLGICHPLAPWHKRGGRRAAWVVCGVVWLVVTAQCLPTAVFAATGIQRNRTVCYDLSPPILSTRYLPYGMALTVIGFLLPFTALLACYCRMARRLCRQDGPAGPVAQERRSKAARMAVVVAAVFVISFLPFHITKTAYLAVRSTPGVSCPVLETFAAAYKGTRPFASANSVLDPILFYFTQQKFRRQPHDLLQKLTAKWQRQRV

Structure (SMILES) | target | test | system | setting | EC50
CCCCC/C=C\C/C=C\C/C=C\C/C=C\CCCC(=O)Nc1ccc(O)cc1 | Sterol carrier protein 2 (Homo sapiens, UniProt P22307) | NBDS displacement, fluorescent probe displacement | – | 50% of maximum displacement, with: NBDS 500 nM | 3210 ± 70 nM
CC[C@H](C)[C@H](NC(=O)[C@H](Cc1ccccc1)NC(=O)[C@H](CC(=O)O)NC(=O)[C@H](CC(C)C)NC(=O)[C@@H](NC(=O)[C@@H](NC(=O)[C@H](CCCNC(=N)N)NC(=O)[C@H](CO)NC(=O)[C@@H](NC(=O)[C@H](CCCNC(=N)N)NC(=O)[C@H](CCSC)NC(=O)[C@@H](N)CCC(=O)O)[C@@H](C)CC)[C@@H](C)CC)[C@@H](C)CC)C(=O)N[C@@H](CC(C)C)C(=O)N[C@@H](CC(C)C)C(=O)N[C@@H](CCCNC(=N)N)C(=O)O | histidine kinase ComD (Streptococcus pneumoniae serotype 2, UniProt A0A0H2ZM50) | – | Streptococcus pneumoniae | – | > 1000 nM
CC(C)NCCc1c[nH]c2ccccc12 | HTR2A | β-arrestin recruitment, agonist | – | – | > 10000 nM
CC(C)c1ccc2c(c1)c(SC(C)(C)C)c(CC(C)(C)C(=O)O)n2Cc1ccc(Cl)cc1 | Microtubule-associated protein tau, monomeric (MAPT, Homo sapiens, UniProt P10636) | intramolecular FRET | HEK293, GFP-tau-RFP biosensor | – | 2120 nM
CC[C@H](C)[C@H](NC(=O)[C@H](Cc1ccccc1)NC(=O)[C@H](CC(=O)O)NC(=O)[C@H](CC(C)C)NC(=O)[C@@H](NC(=O)[C@H](Cc1ccccc1)NC(=O)[C@H](CCCNC(=N)N)NC(=O)[C@H](CO)NC(=O)[C@@H](NC(=O)[C@H](CCCNC(=N)N)NC(=O)[C@H](CCSC)NC(=O)[C@@H](N)CCC(=O)O)[C@@H](C)CC)[C@@H](C)CC)C(=O)N[C@@H](Cc1ccccc1)C(=O)N[C@@H](CC(C)C)C(=O)N[C@@H](CCCNC(=N)N)C(=O)O | histidine kinase ComD (Streptococcus pneumoniae serotype 2, UniProt A0A0H2ZM50) | – | Streptococcus pneumoniae | – | > 1000 nM
CC[C@H](C)[C@H](NC(=O)[C@H](Cc1c[nH]cn1)NC(=O)[C@@H](NC(=O)[C@H](CC(C)C)NC(=O)[C@H](CCCNC(=N)N)NC(=O)[C@@H](NC(=O)[C@@H](N)CCC(=O)O)[C@@H](C)CC)[C@@H](C)O)C(=O)N[C@@H](Cc1ccccc1)C(=O)N[C@@H](Cc1ccccc1)C(=O)N[C@@H](Cc1ccccc1)C(=O)N[C@@H](CC(N)=O)C(=O)N[C@@H](Cc1ccccc1)C(=O)N[C@@H](Cc1ccccc1)C(=O)N[C@@H](CCCCN)C(=O)N[C@@H](CCCNC(=N)N)C(=O)N[C@@H](CCCNC(=N)N)C(=O)O | histidine kinase ComD (Streptococcus pneumoniae serotype 4, UniProt A0A0H2US84) | reporter gene, agonist | Streptococcus pneumoniae, TIGR4 comX::lacZ | 30 min, pH 7.3, 37 °C | > 10000 nM
CC[C@H](C)[C@H](NC(=O)[C@H](Cc1ccccc1)NC(=O)[C@H](CCCNC(=N)N)NC(=O)[C@H](CO)NC(=O)[C@@H](NC(=O)[C@H](CCCNC(=N)N)NC(=O)[C@H](CCSC)NC(=O)[C@@H](N)CCC(=O)O)[C@@H](C)CC)C(=O)N[C@@H](CC(C)C)C(=O)N[C@@H](CC(=O)O)C(=O)N[C@@H](Cc1ccccc1)C(=O)N[C@@H](CC(C)C)C(=O)N[C@@H](Cc1ccccc1)C(=O)N[C@@H](CCC(N)=O)C(=O)N[C@@H](CCCNC(=N)N)C(=O)O | histidine kinase ComD (Streptococcus pneumoniae serotype 2, UniProt A0A0H2ZM50) | – | Streptococcus pneumoniae | – | > 1000 nM
C=CC=O | Transient receptor potential cation channel subfamily A member 1 (TRPA1, Homo sapiens, UniProt O75762) | calcium signal, agonist, fluorescence | – | – | 85000 nM
O=C1c2ccccc2-n2c1nc1ccccc1c2=O | Aryl hydrocarbon receptor (Ahr, Mus musculus, UniProt P30561) | reporter gene, activator | H1L7.5c3 (mouse) | 6 h | 35 nM
COc1cc2ccnc3c2c(c1O)NC=C3 | Delta-type opioid receptor (OPRD1, Homo sapiens, UniProt P41143) | calcium signal, agonist | – | – | 4100 nM
[BH3-][P+](O)(OP(=O)(O)OC[C@H]1O[C@@H](n2cnc3c(N)ncnc32)[C@H](O)[C@@H]1O)OP(=O)(O)OP(=O)(O)OC[C@H]1O[C@@H](n2cnc3c(N)ncnc32)[C@H](O)[C@@H]1O (stereo partly drawn) | P2Y purinoceptor 6 (Rattus norvegicus, UniProt Q63371) | intracellular calcium rise, agonist | 1321-N1 transfected with rat P2Y6 | 37 °C | > 100000 nM
C[C@@]1(O)CC[C@@]2(C)[C@@H](CC[C@@H]3[C@@H]2CC[C@]2(C)[C@@H](c4cc(CO)on4)CC[C@@H]32)C1 | GABA-A receptor; alpha-1/beta-2/gamma-2 (Homo sapiens, UniProt P14867+P18507+P47870) | GABA current potentiation, positive modulator, two-electrode voltage clamp | Xenopus laevis oocytes | 30 s preincubation, with: GABA EC10 | 1330 ± 250 nM
C[C@]12CC(=O)[C@H]3[C@@H](CCC4=CC(=O)CC[C@@]43C)[C@@H]1CC[C@@H]2O | Androgen receptor beta (Oryzias latipes, UniProt D1MV73) | reporter gene, agonist | – | range minimum-maximum | 3.5 to 9.3 nM
CCCN(CCC)CCc1c[nH]c2ccc(OC)cc12 | 5-hydroxytryptamine receptor 1A (HTR1A, Homo sapiens, UniProt P08908) | calcium signal, agonist | – | – | 476 nM
CC[C@H](C)[C@@H]1NC(=O)[C@H](CCCNC(=N)N)NC(=O)[C@H](CC(=O)O)NC(=O)[C@H](CC(C)C)NC(=O)[C@H](CCCCN)NC(=O)[C@H](CC(C)C)NC(=O)CNC(=O)[C@H](Cc2ccccc2)NC(=O)[C@@H](NC(=O)CNC(=O)[C@H](CCCCN)NC(=O)[C@H](CO)NC(=O)[C@H](CC(C)C)NC(=O)CNC(=O)[C@H](CCCCN)NC(=O)[C@H](CCCCN)NC(=O)[C@H](CC(N)=O)NC(=O)[C@H](C)NC(=O)CNC(=O)[C@H](CCCCN)NC(=O)[C@H](Cc2ccc(O)cc2)NC(=O)[C@H](CCCCN)NC(=O)[C@H](CCCNC(=N)N)NC(=O)[C@H](C)NC(=O)[C@H](CC(N)=O)NC(=O)[C@@H]2CCCN2C(=O)[C@H](Cc2c[nH]cn2)NC(=O)[C@H](CCC(=O)O)NC(=O)[C@H](CCC(N)=O)NC(=O)CNC(=O)[C@@H]2CCCN2)CSSC[C@@H](C(=O)O)NC(=O)CNC(=O)[C@H](CC(C)C)NC(=O)CNC(=O)[C@H](CO)NC(=O)[C@H](CCSC)NC(=O)[C@H](CO)NC(=O)CNC1=O | NPR-B | urine cGMP/creatinine, Emax model on Cmax | human | 15 µg/kg | 5.02 ng/mL
O=C1Nc2cc(Cl)c(Cl)cc2N2CCNCC12 (stereo not drawn) | HTR2A | calcium signal, agonist | – | – | 61 nM
CC[C@H](C)[C@H](NC(=O)[C@H](Cc1ccccc1)NC(=O)[C@H](Cc1c[nH]cn1)NC(=O)[C@@H](NC(=O)[C@H](CC(C)C)NC(=O)[C@H](CCCNC(=N)N)NC(=O)[C@@H](NC(=O)[C@@H](N)CCC(=O)O)[C@@H](C)CC)[C@@H](C)O)C(=O)N[C@@H](Cc1ccccc1)C(=O)N[C@@H](Cc1ccccc1)C(=O)N[C@@H](CC(N)=O)C(=O)N[C@@H](CC(C)C)C(=O)N[C@@H](Cc1ccccc1)C(=O)N[C@@H](CCCCN)C(=O)N[C@@H](CCCNC(=N)N)C(=O)N[C@@H](CCCNC(=N)N)C(=O)O | histidine kinase ComD (Streptococcus pneumoniae serotype 4, UniProt A0A0H2US84) | reporter gene, agonist | Streptococcus pneumoniae, TIGR4 comX::lacZ | 30 min, pH 7.3, 37 °C | > 10000 nM
CNCCc1c[nH]c2ccc(OC)cc12 | HTR2A | β-arrestin recruitment, agonist | – | – | 611 nM

For quick reference, copied from above:
Structure (SMILES) | target | test | system | setting | EC50
O=C1Nc2cc(Cl)c(Cl)cc2N2CCNCC12 (stereo not drawn) | HTR2A | calcium signal, agonist | – | – | 61 nM
